Results collected from several papers.
Each numbered part is a random draw from the data of one study; scales do not carry over between parts. Changes are numbered by the printed parent chain.

Set 1
Target: RING finger protein unkempt homolog, zinc fingers 1-6, GST-SBP tag (UNK, Homo sapiens, UniProt Q9C0B0, residues 30-357)
UniProt Q9C0B0, sequence (30-357, looked up): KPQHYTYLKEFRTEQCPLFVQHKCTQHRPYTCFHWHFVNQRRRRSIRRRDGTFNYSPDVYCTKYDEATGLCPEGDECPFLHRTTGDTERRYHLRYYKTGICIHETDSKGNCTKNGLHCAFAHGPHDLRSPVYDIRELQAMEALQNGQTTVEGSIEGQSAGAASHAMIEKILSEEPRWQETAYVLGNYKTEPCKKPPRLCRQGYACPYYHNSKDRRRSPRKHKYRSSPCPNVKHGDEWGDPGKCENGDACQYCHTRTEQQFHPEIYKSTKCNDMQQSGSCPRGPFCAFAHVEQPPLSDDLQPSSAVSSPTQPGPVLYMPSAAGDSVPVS
Technique: RNA Bind-n-Seq
Form: RNA
Medium: in vitro
Tested at: not given
Notes: RNA with constant flanks, human-mouse chimeric sites, ends assumed
Reference: input RNA pool
Reading: higher = stronger binding
`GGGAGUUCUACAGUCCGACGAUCUUAAUCCCCUUCGUUGCUCCACCACUGCUCAUGGUAAUAACAAAGUCUUAUAUCCCCGUCCUAGCUUUCACUCAGAUGGCUUAUGGAGCCGGUUUCCUAGCUUUCUUGGGAGGGAUCAGACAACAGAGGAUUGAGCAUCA` gave a bound/input enrichment of 0.375 ratio.
With `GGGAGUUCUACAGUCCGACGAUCACCAUUUUCGCGGUUCAGGCUUUGUGUGUAGUUCACUUACGGUAUUAAAUUAUUAUUCUGCUUAGCUUAUAAUAAGGAUUACAAUUGGAUUUAAGUAUACUGAAUGUUACUCUGAAACUUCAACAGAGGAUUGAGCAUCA` the bound/input enrichment was 0.771 ratio.
The bound/input enrichment of `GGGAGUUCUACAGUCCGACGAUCACUCUUGACUCUUUCCAUCCUCUUCCUUUCCCUCUUGAUAUUCAAGGCCAUGAAUCCCAAAAUAACAGUCUUAGUGGGAGGCUAGCAAACAGAGGUGGAAUAAAUCCACCCCAGUGUCUCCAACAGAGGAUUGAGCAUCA` is reported as 0.555 ratio.
For `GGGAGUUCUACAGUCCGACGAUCGCCACCAGAUCCCAGAAACAUGACCCUUGCAGCCUAUAAAGAGAAGAUGAAGGAGCUCCCGCUGGUGUCCUUGUUCUGCUCCUGCUUCCUGGCCGAUCCCCUGAAUAAGUCGUCCUACAACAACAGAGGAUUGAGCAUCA`, the bound/input enrichment was 0.277 ratio.
With `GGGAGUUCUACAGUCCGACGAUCUACUCAACUUUCUUGCCACAUUUUGAAUUCCAAGACAUUAUUCCUCCAGAUGACUUCCUAACGAGUGAUGAAGAAGUAGAUUUGGUUUUAUUUGGAAGUUUGAGAGGACAAGUUGUUGGACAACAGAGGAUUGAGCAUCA` the bound/input enrichment was 0.306 ratio.
For `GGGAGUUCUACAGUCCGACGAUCCACAGAGCAGCACCUACCCCCUCCUCCUUUCCACACCUGCAAACUCUUUUACUUGGGCUGCAUAGUUAGUGUAAUUACAUCUCAGCUUUGAGGGCUCCCUGUGGCAAUUCCCGGAUUAAACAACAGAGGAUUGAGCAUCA`, the bound/input enrichment was 3.68 ratio.
With `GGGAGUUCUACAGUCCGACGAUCUAAAUUAGGGCUGCCGUUUUCUGUUUCUCCCUGGGCUGCGGAAAGCCAGAAGAUUUUAUCUAGCUUAAACCAGGCUGCUGGAGCUUGCUCUUUUUUUCCACGAGGGUGUUUUUGGCUGCACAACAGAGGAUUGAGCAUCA` the bound/input enrichment was 0.499 ratio.
`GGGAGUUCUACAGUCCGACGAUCAAAGUGAUGACUAUGUUUGUCCAACGACAGGUGUUUGCGGAGAGCAAAGAUGAGAUUGCGUUAGUCCUCUAUGGCACAGAUGGCACUGAUAAUGCCCUUGCUGGCAAGGACCAGUAUCAGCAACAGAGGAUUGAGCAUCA` has a bound/input enrichment of 0.176 ratio.

Set 2
Target: CCNB3, cyclin fold, Cln2 fusion (human)
Technique: yeast growth competition, sequencing
Medium: yeast
Notes: weak parent motif
Reference: not given
Reading: higher = stronger binding
Starting sequence: GMNC docking peptide (human); KNAKRNLSSEFAN; partner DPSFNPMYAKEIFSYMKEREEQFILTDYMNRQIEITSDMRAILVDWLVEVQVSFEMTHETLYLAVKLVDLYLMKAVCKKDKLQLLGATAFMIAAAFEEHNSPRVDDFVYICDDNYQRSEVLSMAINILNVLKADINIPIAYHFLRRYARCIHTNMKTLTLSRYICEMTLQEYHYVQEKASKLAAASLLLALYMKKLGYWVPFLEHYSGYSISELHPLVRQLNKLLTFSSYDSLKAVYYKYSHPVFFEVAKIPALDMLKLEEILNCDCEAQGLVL
Under “normalised enrichment score”, `KNAKRNFSSEFAN [L7F]` is recorded as 0.0597.
Under “normalised enrichment score”, `KNAGRNLSSEFAN [K4G]` is recorded as 0.104.
`KNAKRNLSSEFLN [A12L]` — result for “normalised enrichment score”: -0.089.
For `KNAKRNLSSEFDN [A12D]`, “normalised enrichment score” read 0.285.
For `KNAKRNLSSHFAN [E10H]`, “normalised enrichment score” read 0.231.
`KNAKRNLNSEFAN [S8N]`: “normalised enrichment score” 0.514.
`KNAKRNLSPEFAN [S9P]` — result for “normalised enrichment score”: 0.201.
`KEAKRNLSSEFAN [N2E]`: “normalised enrichment score” 0.559.
For `KNAKRNLCSEFAN [S8C]`, “normalised enrichment score” read -0.158.
Under “normalised enrichment score”, `KNAKRNLSSFFAN [E10F]` is recorded as 0.143.
Under “normalised enrichment score”, `KMAKRNLSSEFAN [N2M]` is recorded as 0.263.
`KNAKRILSSEFAN [N6I]` — result for “normalised enrichment score”: -0.0397.
`KNAKRNLSSEFYN [A12Y]` — result for “normalised enrichment score”: 0.181.
Under “normalised enrichment score”, `KNAKTNLSSEFAN [R5T]` is recorded as 0.194.
`KNAKRNLSAEFAN [S9A]` — result for “normalised enrichment score”: 0.61.
`KNAKRWLSSEFAN [N6W]` — result for “normalised enrichment score”: 0.343.

Set 3
Target: Prothrombin, mature alpha-thrombin (F2, Homo sapiens, UniProt P00734)
Technique: aptamer microarray, sandwich
Form: DNA with 2'F-ANA
Medium: in vitro
Tested at: 200 nM
Notes: whole 15-mer aptamer, many near background
Together with: Cy3 exosite-II aptamer, 400 nM
Reading: higher = stronger binding
Strand: GGTTGGTGTGGTTGG
`2'F-ANA at 1 2 4 6 12` — result for “mean fluorescence intensity”: 286 a.u.
Under “mean fluorescence intensity”, `2'F-ANA at 6 7 10 13 14` is recorded as 112 a.u.
Under “mean fluorescence intensity”, `2'F-ANA at 1 2 3 4 11 12 14 15` is recorded as 105 a.u.
For `2'F-ANA at 3 5 9 10 12 13 14 15`, “mean fluorescence intensity” read 52.4 a.u.
For `2'F-ANA at 3 4 7 8 12 13 14 15`, “mean fluorescence intensity” read 416 a.u.
Under “mean fluorescence intensity”, `2'F-ANA at 2 3 4 5 6 7 9 11 13` is recorded as 55.9 a.u.
For `2'F-ANA at 1 3 4 5 6 9 10 13`, “mean fluorescence intensity” read 46.1 a.u.
`2'F-ANA at 2 3 6 8 10 11 13` — result for “mean fluorescence intensity”: 287 a.u.
`2'F-ANA at 1 2 5 7 8 10 12 13 14 15`: “mean fluorescence intensity” 48.7 a.u.
Under “mean fluorescence intensity”, `2'F-ANA at 2 3 4 7 8 9 10 11 12 14` is recorded as 171 a.u.
`2'F-ANA at 2 7 8 11 12 15`: “mean fluorescence intensity” 729 a.u.
For `2'F-ANA at 1 2 7 8 11 13 15`, “mean fluorescence intensity” read 127 a.u.
Under “mean fluorescence intensity”, `2'F-ANA at 2 3 5 9 11 13 14` is recorded as 51.4 a.u.
`2'F-ANA at 2 3 6 7 9 12 15`: “mean fluorescence intensity” 842 a.u.
`2'F-ANA at 5 6 10 11 13` — result for “mean fluorescence intensity”: 46.6 a.u.
`2'F-ANA at 5 6 7 8 9 10 12 13 14` — result for “mean fluorescence intensity”: 48 a.u.
`2'F-ANA at 2 4 5 6 9 10 13 14 15`: “mean fluorescence intensity” 65.5 a.u.
For `2'F-ANA at 1 2 3 4 5 8 9 10 13`, “mean fluorescence intensity” read 46.5 a.u.
`2'F-ANA at 2 3 4 5 6 8 9 10 12 14` — result for “mean fluorescence intensity”: 52.8 a.u.
Under “mean fluorescence intensity”, `2'F-ANA at 1 6 7 8 11 13 14 15` is recorded as 58.4 a.u.
`2'F-ANA at 2 4 5 8 9 10 14`: “mean fluorescence intensity” 45.7 a.u.
`2'F-ANA at 4 6 7 8 9 10 11 15`: “mean fluorescence intensity” 74.7 a.u.
`2'F-ANA at 2 3 5 6 7 11 14` — result for “mean fluorescence intensity”: 49.3 a.u.
`2'F-ANA at 2 4 5 8 10`: “mean fluorescence intensity” 102 a.u.

Set 4
Target: Histone acetyltransferase KAT6A, both winged helices, GST fusion (KAT6A, Homo sapiens, UniProt Q92794, residues 1-181)
Technique: protein binding microarray
Form: double-stranded DNA, one strand shown
Medium: in vitro
Tested at: not given
Notes: 8-mer, flanks averaged, mean of 2 arrays, mostly near background
Reference: not given
Reading: higher = stronger binding
Target sequence (chain): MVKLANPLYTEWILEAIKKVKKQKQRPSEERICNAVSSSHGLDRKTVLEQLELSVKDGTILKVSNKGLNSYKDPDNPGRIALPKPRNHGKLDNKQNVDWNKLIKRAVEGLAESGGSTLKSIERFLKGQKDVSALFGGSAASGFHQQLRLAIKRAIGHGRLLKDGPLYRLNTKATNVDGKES
The E-score of `CCCCTATA` is reported as -0.0608.
`ATTCAGCC` gave an E-score of 0.0898.
With `AGTCGGTC` the E-score was 0.0856.
`GCGGCTTA` gave an E-score of 0.284.
`AAGACTCT` gave an E-score of -0.115.
For `GCTCGCCC`, the E-score was 0.0351.
For `GCCATAAC`, the E-score was -0.105.
With `ACGGCAGC` the E-score was 0.249.
For `AATCGACT`, the E-score was -0.115.
For `AATTAGGA`, the E-score was -0.0737.
`ATCTAGTA` has an E-score of -0.014.
`ATAGGTTA` gave an E-score of -0.0766.
`ATAGCTGG` has an E-score of -0.151.
`CCGGTGAG` has an E-score of 0.0781.
The E-score of `AAAGGGGT` is reported as -0.271.
The E-score of `CTCAAGGA` is reported as -0.162.

Some of these lines once more (set 1):
With `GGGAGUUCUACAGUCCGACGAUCUAAAUUAGGGCUGCCGUUUUCUGUUUCUCCCUGGGCUGCGGAAAGCCAGAAGAUUUUAUCUAGCUUAAACCAGGCUGCUGGAGCUUGCUCUUUUUUUCCACGAGGGUGUUUUUGGCUGCACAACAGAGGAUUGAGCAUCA` the bound/input enrichment was 0.499 ratio.
`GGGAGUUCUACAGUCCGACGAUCAAAGUGAUGACUAUGUUUGUCCAACGACAGGUGUUUGCGGAGAGCAAAGAUGAGAUUGCGUUAGUCCUCUAUGGCACAGAUGGCACUGAUAAUGCCCUUGCUGGCAAGGACCAGUAUCAGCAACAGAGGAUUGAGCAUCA` has a bound/input enrichment of 0.176 ratio.
`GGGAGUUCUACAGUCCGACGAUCUUAAUCCCCUUCGUUGCUCCACCACUGCUCAUGGUAAUAACAAAGUCUUAUAUCCCCGUCCUAGCUUUCACUCAGAUGGCUUAUGGAGCCGGUUUCCUAGCUUUCUUGGGAGGGAUCAGACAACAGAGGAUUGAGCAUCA` gave a bound/input enrichment of 0.375 ratio.
With `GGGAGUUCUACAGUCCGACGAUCACCAUUUUCGCGGUUCAGGCUUUGUGUGUAGUUCACUUACGGUAUUAAAUUAUUAUUCUGCUUAGCUUAUAAUAAGGAUUACAAUUGGAUUUAAGUAUACUGAAUGUUACUCUGAAACUUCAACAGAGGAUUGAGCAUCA` the bound/input enrichment was 0.771 ratio.
For `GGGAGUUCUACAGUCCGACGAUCCACAGAGCAGCACCUACCCCCUCCUCCUUUCCACACCUGCAAACUCUUUUACUUGGGCUGCAUAGUUAGUGUAAUUACAUCUCAGCUUUGAGGGCUCCCUGUGGCAAUUCCCGGAUUAAACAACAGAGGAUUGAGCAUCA`, the bound/input enrichment was 3.68 ratio.
For `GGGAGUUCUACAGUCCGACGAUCGCCACCAGAUCCCAGAAACAUGACCCUUGCAGCCUAUAAAGAGAAGAUGAAGGAGCUCCCGCUGGUGUCCUUGUUCUGCUCCUGCUUCCUGGCCGAUCCCCUGAAUAAGUCGUCCUACAACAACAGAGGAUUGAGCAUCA`, the bound/input enrichment was 0.277 ratio.
With `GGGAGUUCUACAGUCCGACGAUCUACUCAACUUUCUUGCCACAUUUUGAAUUCCAAGACAUUAUUCCUCCAGAUGACUUCCUAACGAGUGAUGAAGAAGUAGAUUUGGUUUUAUUUGGAAGUUUGAGAGGACAAGUUGUUGGACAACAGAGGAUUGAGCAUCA` the bound/input enrichment was 0.306 ratio.
The bound/input enrichment of `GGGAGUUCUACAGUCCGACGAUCACUCUUGACUCUUUCCAUCCUCUUCCUUUCCCUCUUGAUAUUCAAGGCCAUGAAUCCCAAAAUAACAGUCUUAGUGGGAGGCUAGCAAACAGAGGUGGAAUAAAUCCACCCCAGUGUCUCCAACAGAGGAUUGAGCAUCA` is reported as 0.555 ratio.
